Experimental data gathered from unrelated publications.
Compare with care: the assays were run in different laboratories. Values joined by “and” are separate records of one study, mostly repeats; a detail may differ. ± gives the spread as reported.
DRD4: D(4) dopamine receptor (DRD4, Homo sapiens, UniProt P21917)
UniProt P21917, sequence (whole entry, looked up): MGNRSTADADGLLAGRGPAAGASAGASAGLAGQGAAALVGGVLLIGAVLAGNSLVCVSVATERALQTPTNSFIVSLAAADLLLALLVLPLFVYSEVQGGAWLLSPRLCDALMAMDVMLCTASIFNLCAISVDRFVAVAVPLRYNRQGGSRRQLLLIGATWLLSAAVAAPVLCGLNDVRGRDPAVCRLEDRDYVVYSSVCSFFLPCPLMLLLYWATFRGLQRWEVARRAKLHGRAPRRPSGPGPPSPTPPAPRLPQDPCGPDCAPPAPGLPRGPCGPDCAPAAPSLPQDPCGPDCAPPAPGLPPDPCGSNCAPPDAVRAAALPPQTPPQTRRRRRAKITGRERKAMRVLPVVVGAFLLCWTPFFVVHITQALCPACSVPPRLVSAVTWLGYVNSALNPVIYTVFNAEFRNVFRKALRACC
LCK/CRBN: LCK/CRBN (Homo sapiens, UniProt P06239+Q96SW2)
UniProt Q96SW2, sequence (whole entry, looked up): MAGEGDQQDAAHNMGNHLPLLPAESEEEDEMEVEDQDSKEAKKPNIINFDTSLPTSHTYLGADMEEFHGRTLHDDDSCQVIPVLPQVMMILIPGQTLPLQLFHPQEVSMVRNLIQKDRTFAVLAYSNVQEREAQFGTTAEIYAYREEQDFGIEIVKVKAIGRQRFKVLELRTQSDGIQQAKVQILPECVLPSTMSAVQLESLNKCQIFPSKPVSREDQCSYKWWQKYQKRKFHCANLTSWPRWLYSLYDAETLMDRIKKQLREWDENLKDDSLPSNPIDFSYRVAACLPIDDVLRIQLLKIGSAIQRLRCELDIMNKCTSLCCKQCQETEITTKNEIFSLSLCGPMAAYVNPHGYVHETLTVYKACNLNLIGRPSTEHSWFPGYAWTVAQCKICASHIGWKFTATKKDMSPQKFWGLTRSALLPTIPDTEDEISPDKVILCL
UniProt P06239, sequence (whole entry, looked up): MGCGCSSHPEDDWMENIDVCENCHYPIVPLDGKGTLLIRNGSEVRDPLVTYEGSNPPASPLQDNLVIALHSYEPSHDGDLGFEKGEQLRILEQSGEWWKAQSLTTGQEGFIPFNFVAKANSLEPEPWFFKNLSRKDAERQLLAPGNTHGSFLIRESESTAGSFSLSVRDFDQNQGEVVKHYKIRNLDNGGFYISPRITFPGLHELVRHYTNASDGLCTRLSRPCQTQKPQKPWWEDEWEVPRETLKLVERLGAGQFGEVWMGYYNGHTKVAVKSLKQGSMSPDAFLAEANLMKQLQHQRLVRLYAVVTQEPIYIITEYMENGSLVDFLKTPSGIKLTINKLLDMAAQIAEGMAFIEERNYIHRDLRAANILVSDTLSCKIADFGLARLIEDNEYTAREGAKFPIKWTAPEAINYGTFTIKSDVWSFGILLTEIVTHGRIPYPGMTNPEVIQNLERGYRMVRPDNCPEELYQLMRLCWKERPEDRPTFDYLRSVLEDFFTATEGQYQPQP
UniProt P07948, sequence (whole entry, looked up): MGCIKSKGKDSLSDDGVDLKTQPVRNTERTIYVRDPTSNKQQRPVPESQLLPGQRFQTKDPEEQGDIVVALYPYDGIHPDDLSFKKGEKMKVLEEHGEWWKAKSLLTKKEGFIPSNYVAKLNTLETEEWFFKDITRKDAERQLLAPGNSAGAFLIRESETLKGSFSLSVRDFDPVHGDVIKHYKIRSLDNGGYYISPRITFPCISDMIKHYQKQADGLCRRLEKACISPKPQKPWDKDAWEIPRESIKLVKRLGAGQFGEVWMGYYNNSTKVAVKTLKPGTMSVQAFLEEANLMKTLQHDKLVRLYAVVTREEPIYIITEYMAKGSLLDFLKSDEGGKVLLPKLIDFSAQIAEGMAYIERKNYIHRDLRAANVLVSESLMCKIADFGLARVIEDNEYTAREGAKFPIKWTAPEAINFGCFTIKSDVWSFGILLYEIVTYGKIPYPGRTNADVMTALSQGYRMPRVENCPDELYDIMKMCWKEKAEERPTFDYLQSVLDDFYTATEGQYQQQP
UniProt P46089, sequence (whole entry, unmodified, looked up): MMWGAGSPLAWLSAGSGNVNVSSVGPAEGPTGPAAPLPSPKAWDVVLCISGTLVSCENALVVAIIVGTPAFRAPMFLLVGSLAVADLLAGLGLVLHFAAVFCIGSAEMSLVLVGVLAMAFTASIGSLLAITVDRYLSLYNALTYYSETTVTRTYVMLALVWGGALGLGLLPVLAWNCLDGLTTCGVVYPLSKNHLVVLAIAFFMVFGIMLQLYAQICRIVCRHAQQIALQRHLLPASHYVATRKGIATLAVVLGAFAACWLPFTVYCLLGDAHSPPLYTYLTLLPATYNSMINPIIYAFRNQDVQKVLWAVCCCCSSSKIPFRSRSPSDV
UniProt Q9NYA1, sequence (whole entry, looked up): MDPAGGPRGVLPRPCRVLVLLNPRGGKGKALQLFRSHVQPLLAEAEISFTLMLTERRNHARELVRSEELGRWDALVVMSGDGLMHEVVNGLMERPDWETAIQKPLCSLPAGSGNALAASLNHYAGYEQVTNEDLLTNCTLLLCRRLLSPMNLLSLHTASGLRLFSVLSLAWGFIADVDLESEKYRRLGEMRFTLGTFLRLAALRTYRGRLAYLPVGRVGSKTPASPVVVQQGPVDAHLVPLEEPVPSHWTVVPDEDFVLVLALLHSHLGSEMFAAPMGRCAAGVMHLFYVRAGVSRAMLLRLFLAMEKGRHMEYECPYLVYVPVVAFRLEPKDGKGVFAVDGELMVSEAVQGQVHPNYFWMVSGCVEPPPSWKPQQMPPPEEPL
UniProt Q92547, sequence (whole entry, looked up): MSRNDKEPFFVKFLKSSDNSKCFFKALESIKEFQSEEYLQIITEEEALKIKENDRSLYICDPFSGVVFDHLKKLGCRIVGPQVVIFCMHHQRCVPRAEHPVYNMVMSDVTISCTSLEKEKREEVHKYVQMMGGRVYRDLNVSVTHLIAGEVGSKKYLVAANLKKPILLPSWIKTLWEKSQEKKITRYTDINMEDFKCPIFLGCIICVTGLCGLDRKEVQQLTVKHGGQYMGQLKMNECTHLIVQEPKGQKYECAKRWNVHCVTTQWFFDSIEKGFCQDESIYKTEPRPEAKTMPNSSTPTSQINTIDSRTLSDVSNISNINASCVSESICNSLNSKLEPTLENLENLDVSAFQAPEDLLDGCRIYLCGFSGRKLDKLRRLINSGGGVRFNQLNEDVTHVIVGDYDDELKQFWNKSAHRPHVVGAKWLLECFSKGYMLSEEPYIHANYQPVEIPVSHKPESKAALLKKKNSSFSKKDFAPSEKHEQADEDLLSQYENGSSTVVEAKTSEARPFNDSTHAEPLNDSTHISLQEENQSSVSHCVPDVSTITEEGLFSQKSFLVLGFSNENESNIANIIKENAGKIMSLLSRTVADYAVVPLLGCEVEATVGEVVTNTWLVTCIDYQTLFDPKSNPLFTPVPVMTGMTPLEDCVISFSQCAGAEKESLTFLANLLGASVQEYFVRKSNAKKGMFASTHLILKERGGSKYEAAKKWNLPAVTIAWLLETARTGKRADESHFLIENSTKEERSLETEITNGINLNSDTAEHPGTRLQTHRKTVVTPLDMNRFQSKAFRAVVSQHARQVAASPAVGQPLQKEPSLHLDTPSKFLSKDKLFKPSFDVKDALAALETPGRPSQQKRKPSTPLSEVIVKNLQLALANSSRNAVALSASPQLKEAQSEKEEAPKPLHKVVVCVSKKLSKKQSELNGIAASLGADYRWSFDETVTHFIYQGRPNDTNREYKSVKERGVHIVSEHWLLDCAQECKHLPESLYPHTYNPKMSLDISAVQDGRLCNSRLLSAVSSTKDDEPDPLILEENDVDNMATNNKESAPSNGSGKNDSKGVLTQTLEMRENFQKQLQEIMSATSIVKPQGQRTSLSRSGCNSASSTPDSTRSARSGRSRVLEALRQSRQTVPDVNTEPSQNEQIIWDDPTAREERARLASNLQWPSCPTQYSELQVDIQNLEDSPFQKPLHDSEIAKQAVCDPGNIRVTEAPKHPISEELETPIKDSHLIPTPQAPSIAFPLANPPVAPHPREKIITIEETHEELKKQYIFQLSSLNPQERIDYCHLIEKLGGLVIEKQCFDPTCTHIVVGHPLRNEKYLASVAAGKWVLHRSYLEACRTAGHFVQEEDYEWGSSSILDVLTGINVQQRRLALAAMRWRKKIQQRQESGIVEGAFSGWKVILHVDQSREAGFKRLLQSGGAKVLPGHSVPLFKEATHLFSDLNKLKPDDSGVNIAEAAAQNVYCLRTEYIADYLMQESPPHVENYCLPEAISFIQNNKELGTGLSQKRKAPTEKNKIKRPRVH
UniProt Q86YV6, sequence (whole entry, looked up): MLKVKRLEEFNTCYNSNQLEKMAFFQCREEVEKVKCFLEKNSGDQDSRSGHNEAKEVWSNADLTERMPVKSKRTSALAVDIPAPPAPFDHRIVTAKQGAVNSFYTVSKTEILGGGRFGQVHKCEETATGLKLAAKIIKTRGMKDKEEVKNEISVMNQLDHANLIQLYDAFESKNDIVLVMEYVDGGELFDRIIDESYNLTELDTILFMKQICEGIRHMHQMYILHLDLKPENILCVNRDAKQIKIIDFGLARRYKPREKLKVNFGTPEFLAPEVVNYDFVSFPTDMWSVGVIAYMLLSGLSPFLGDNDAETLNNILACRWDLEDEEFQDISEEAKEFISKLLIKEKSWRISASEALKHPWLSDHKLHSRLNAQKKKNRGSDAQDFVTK
UniProt P15170, sequence (whole entry, looked up): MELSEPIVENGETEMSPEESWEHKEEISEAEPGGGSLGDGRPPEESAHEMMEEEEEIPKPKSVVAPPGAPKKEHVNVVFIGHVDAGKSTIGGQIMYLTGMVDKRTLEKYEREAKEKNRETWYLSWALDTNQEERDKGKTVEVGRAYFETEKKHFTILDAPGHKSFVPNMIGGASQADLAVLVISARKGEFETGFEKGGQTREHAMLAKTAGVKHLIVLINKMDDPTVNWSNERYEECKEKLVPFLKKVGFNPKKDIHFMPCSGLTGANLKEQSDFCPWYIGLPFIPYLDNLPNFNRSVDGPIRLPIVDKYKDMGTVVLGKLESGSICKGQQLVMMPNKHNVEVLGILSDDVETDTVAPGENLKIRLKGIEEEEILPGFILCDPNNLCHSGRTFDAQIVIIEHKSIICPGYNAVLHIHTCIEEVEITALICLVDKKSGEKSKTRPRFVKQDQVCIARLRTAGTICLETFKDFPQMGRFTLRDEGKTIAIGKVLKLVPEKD

Structure (SMILES) | target | test | system | setting | endpoint | value
CC1(C)C[C@@H](Nc2cccc(-c3sc(C(=O)O)c(OCC(=O)O)c3Cl)c2)CCN1S(=O)(=O)Cc1cccc(NC(=O)CN2CCC(c3ccc4c(c3)oc(=O)n4C3CCC(=O)NC3=O)CC2)c1 (stereo partly shown) | Tyrosine-protein phosphatase non-receptor type 1 (Mus musculus, UniProt P35821) | degrader, Western blot | B16-F10 | 24 h | DC50 | 83 nM
CCN(CC)CC(=O)Nc1cccc(-n2cc(-c3ccc4ccc(-c5cn(-c6cccc(NC(=O)CN(CC)CC)c6)nn5)cc4c3)nn2)c1 | LYN (Homo sapiens, UniProt P07948) | enzyme activity, inhibitor | – | – | IC50 | > 10000 nM
Cn1ncc2cc(CN3CCC(F)(F)C(COc4ccc(F)cc4)C3)ccc21 (stereo not shown) | DRD4 | ligand displacement, radioligand | – | cell membranes | Ki | 1 nM
Cc1nn(-c2cccc(N)c2)c(=O)c2cnc(Nc3ccc(N4CCNCC4)cc3)nc12 | SPHK1 (Homo sapiens, UniProt Q9NYA1) | enzyme activity, inhibitor | – | – | IC50 | > 10000 nM
CCc1nc2cc3ccccc3cc2cc1C(=O)N[C@@H](CCCCN)C(=O)N[C@@H](C/C=C\C[C@H](NC(=O)[C@H](CCCCN)NC(=O)c1cc2cc3ccccc3cc2nc1CC)C(=O)N1CCC[C@H]1C(=O)NCCCN)C(=O)N1CCC[C@H]1C(=O)NCCCN | (CUG)10 RNA | SPR | – | – | Kd | 175 nM
CCc1c(C(=O)Nc2ccc3c(c2)CN(C2CCC(=O)NC2=O)C3=O)[nH]c2c(NC(C)=O)cccc12 (stereo not shown) | LCK/CRBN | degrader, HiBiT, measured: LCK-HiBiT | KOPTK1 | 24 h | DC50 | 4.7 ± 1.6 nM
CC(C)Oc1cc(Cl)ccc1CNc1cc(-c2ccccc2)nc2ncnn12 | GPR3 (Homo sapiens, UniProt P46089, M156A) | cAMP level, agonist, cAMP GloSensor | – | M156A mutant | EC50 | 1280 nM
N#Cc1ccc(OCC2CN(Cc3ncn4ccccc34)CCC2(F)F)cc1F (stereo not shown) | DRD4 | ligand displacement, radioligand | – | cell membranes | Ki | 21 nM and 21.3 nM
O=C(O)CC12CC3CC(CC(C3)C1)C2 | DNA topoisomerase 2-binding protein 1, BRCT7-8 domains (TOPBP1, Homo sapiens, UniProt Q92547) | BRCT7-8 peptide binding, fluorescence polarization | – | protein 500 nM, together with: FITC-BACH1 peptide 20 nM | Kd | 600000 ± 50000 nM
NCCCC[C@H](NC(=O)[C@H](C/C=C/C[C@H](NC(=O)[C@@H]1CCCN1)C(=O)N[C@@H](CCCCN)C(=O)NCCCN)NC(=O)[C@@H]1CCCN1)C(=O)NCCCN | (CUG)10 RNA | SPR | – | – | Kd | 423 nM
CNc1ncnc2c1ncn2C1OC(CO)C(O)C1O (stereo not shown) | ADORA2B (Homo sapiens, UniProt P29275) | G protein activation, agonist | – | – | EC50 | 39000 nM
Fc1cccc(OCC2CN(Cc3cn4nc(Cl)ccc4n3)CCC2(F)F)c1 (stereo not shown) | DRD4 | ligand displacement, radioligand | – | cell membranes | Ki | 5.5 nM
CCc1c(C(=O)Nc2ccc3c(c2)CN(C2CCC(=O)NC2=O)C3=O)[nH]c2c(CO)cccc12 (stereo not shown) | GSPT1 (Homo sapiens, UniProt P15170) | protein level, degrader, luciferase | – | – | DC50 | > 10000 nM
CCc1nc2cc3ccccc3cc2cc1C(=O)N1CCC[C@H]1C(=O)N[C@@H](C/C=C/C[C@H](NC(=O)[C@@H]1CCCN1C(=O)c1cc2cc3ccccc3cc2nc1CC)C(=O)N[C@@H](CCCCN)C(=O)NCCCN)C(=O)N[C@@H](CCCCN)C(=O)NCCCN | (CUG)10 RNA | SPR | – | – | Kd | 48 nM
Fc1ccc(OCC2CN(Cc3ncc4ccccn34)CCC2(F)F)cc1F (stereo not shown) | DRD4 | ligand displacement, radioligand | – | – | Ki | 135 nM
CCc1c(C(=O)Nc2ccc3c(c2)CN(C2CCC(=O)NC2=O)C3=O)[nH]c2c(CNC(C)=O)cccc12 (stereo not shown) | LCK/CRBN | degrader, HiBiT, measured: LCK-HiBiT | KOPTK1 | 24 h | DC50 | 7.5 ± 1.6 nM
Cn1ncc2cc(CN3CCC(F)(F)C(COc4ccc(C#N)cc4)C3)ccc21 (stereo not shown) | DRD4 | ligand displacement, radioligand | – | cell membranes | Ki | 8.9 nM
Cc1c[nH]c2nccc(-c3ccc(C(=O)N[C@@H]4c5c(F)cc(C(F)F)cc5C[C@@H]4O)cn3)c12 | MYLK4 (Homo sapiens, UniProt Q86YV6) | binding, competition with immobilised ligand | – | – | Kd | 320 nM
Cn1ncc2cc(CN3CCC(F)(F)C(COc4cccc(F)c4)C3)ccc21 (stereo not shown) | DRD4 | ligand displacement, radioligand | – | cell membranes | Ki | 3.02 nM
CCc1nc2cc3ccccc3cc2cc1C(=O)N1CCC[C@H]1C(=O)N[C@@H](CCC/C=C/CCC[C@H](NC(=O)[C@@H]1CCCN1C(=O)c1cc2cc3ccccc3cc2nc1CC)C(=O)N[C@@H](CCCCN)C(=O)NCCCN)C(=O)N[C@@H](CCCCN)C(=O)NCCCN | (CUG)10 RNA | SPR | – | – | Kd | 16 nM
Fc1ccc(OCC2CN(Cc3ncn4ccccc34)CCC2(F)F)cc1 (stereo not shown) | DRD4 | ligand displacement, radioligand | – | cell membranes | Ki | 118 nM
CC[C@H](C(=O)N1CCCC[C@H]1C(=O)O[C@H](CCc1ccc(OC)c(OC)c1)c1ccccc1OCC(=O)NCCCCCCOc1cccc2c1C(=O)N(C1CCC(=O)NC1=O)C2=O)c1cc(OC)c(OC)c(OC)c1 (stereo partly shown) | FKBP1A (Homo sapiens, UniProt P62942, F37V) | luminescence | HEK293T stably expressing target | 6 h | DC50 | ~100 nM
